Assay results gathered from unrelated publications.
Compare with care: the assays were run in different laboratories. Numbers after ± are the reported error.

N.N.O=C([O-])C1(C(=O)[O-])CCC1.[Pt+2]  IC50 (CH1; cell viability, MTT; 96 h): 0.81 ± 0.17 µM
Cc1ccc(C(C)C)cc1.[Cl][Ru]([Cl])[PH]12CN3CN(CN(C3)C1)C2  IC50 (HCC1806; cell viability, PrestoBlue): 750 µM
O=c1[nH]cc(F)c(=O)[nH]1  IC50 (293FT; cell viability): ≥ 50 µM
Nc1nc2[nH]c(CCCc3csc(C(=O)N[C@@H](CCC(=O)O)C(=O)O)c3)cc2c(=O)[nH]1  IC50 (IGROV-1 knockdown cells; cell growth): 0.019 to 0.138 µM
N.N.[Cl][Pt][Cl]  IC50 (HAF; cell growth or viability, SRB): 32.6 µM
CC[C@H](C)[C@H](NC(=O)[C@H](CCCCN)NC(=O)[C@H](CCCCN)NC(=O)[C@H](CC(C)C)NC(=O)[C@@H](NC(=O)[C@H](CCCCN)NC(=O)[C@H](C)NC(=O)[C@H](C)NC(=O)[C@@H](NC(=O)CNC(=O)[C@H](C)NC(=O)[C@@H](NC(=O)[C@@H](NC(=O)[C@@H]1CCCN1C(=O)[C@H](Cc1ccccc1)NC(=O)[C@@H](N)Cc1ccccc1)[C@@H](C)CC)C(C)C)C(C)C)C(C)C)C(=O)N[C@@H](Cc1ccccc1)C(=O)N[C@H]1CSSC[C@@H](C(=O)O)NC(=O)[C@H](CCCCN)NC(=O)[C@H](CCCCN)NC(=O)[C@H](CO)NC(=O)[C@H]([C@@H](C)CC)NC(=O)[C@H]([C@@H](C)O)NC1=O  IC50 (H838; cell viability, MTT): 6.88 µM
CCC(C)C(OC(C)=O)C(=O)O[C@H]1[C@H](O)[C@@H]2[C@@]3(C)C=CC(=O)C(C)(C)[C@@H]3C[C@@H](OC(=O)C(O)C(C)C)[C@@]2(C)[C@@]23O[C@@H]2C[C@@H](c2ccoc2)[C@]13C (stereo partly shown)  IC50 (LAPC4; AR transcriptional activity, antagonist, PSA promoter luciferase; 24 h): 16.6 µM
N.N.[Cl][Pt][Cl]  IC50 (NIH3T3; cell viability, MTT; 48 h): 24.4 ± 6.18 µM
N.N.[Cl][Pt][Cl]  IC50 (H838; cell viability, MTT; 4 h, added: cimetidine 3 mmol/L): 81.3 ± 11.5 µM
O=C(Cn1cnc2ccccc2c1=O)Nc1nccs1  IC50 (HepG2.2.15; cell growth or viability, crystal violet; 48 h): 79.5 µM
N.N.[Cl][Pt][Cl]  IC50 (HeLa; cell growth or viability, MTT): 1.7 µM
O=S(=O)([O-])[O-].[Cu+2]  IC50 (Caco-2 monolayers; transepithelial resistance; 96 h, repeated dosing): 473 µM
C#CC[C@H](N)C(=O)N[C@@H](C)C(=O)N1CCC[C@H]1C(=O)N1CCC[C@H]1C(=O)NCC(=O)N[C@@H](CCCN)C(=O)N[C@@H](CCCNC(=N)N)C(=O)N[C@@H](CC(C)C)C(=O)N[C@@H](CCCNC(=N)N)C(=O)N[C@@H](CO)C(=O)NCC(=O)N[C@@H](CCCNC(=N)N)C(=O)N[C@@H](CO)C(=O)N[C@H](C(=O)NCC(=O)N[C@@H](C)C(=O)N1CCC[C@H]1C(=O)N[C@@H](CC(C)C)C(=O)N[C@H](C(=O)N[C@@H](CCCNC(=N)N)C(=O)NCC(=O)N[C@@H](CO)C(N)=O)[C@@H](C)O)[C@@H](C)O  IC50 (A2780; cell growth or viability, MTT): > 200 µM
CC[C@@]1(O)C(=O)OCc2c1cc1n(c2=O)Cc2cc3ccccc3nc2-1  IC50 (L02; cell growth or viability, MTT; 48 h): 0.01 µM
C/C=C(C)/C=C/C=C/[C@H](OC)[C@@H](C)[C@@H](OC)[C@@H](C)CCc1oc2c(O)c(OC)cc(OC)c2c(=O)c1C  IC50 (HEK293; oxygen consumption): 0.058 ± 0.051 µM
C[C@@H]1CC[C@H]2[C@@H](C)C(=O)O[C@@H]3O[C@@]4(C)CC[C@@H]1[C@]32OO4  IC50 (MCF7/ADR multidrug-resistant; cell growth, MTT; 24 h): > 100 µM
O=P12CN3CN(CN(C3)C1)C2  IC50 (human PBMC; cytotoxicity, MTT; 24 h, 1% DMSO): > 500 µM
CN1CCC2(CC1)c1ccccc1N(Cc1ccc(C(=O)NO)cc1)C2c1ccccc1F (racemic)  IC50 (IPF patient basal cells; bronchosphere formation, 3D organoid and MTT; 14 days): 0.00331 µM
CO[C@H]1/C=C\C=C(/C)C(=O)NC2=CC(=O)C(NCCN(C)C)=C(C[C@@H](C)C[C@H](OC)[C@H](O)[C@@H](C)/C=C(\C)[C@@H]1OC(N)=O)C2=O  IC50 (H2030 (EGFR wild type); cell viability, Alamar Blue; 120 h): < 0.01 µM
C=CC(=O)Nc1ccc(N=Nc2ccc(NC(=O)C[N+](CC)(CC)CC)cc2)cc1  IC50 (HEK293 expressing Sh-IR; potassium current, blocker, inside-out patch clamp; 500 nm light, trans-enriched): 2 µM
N.N.[Cl][Pt][Cl]  IC50 (HT-29; cell viability, MTS; 48 h): 80.6 ± 1.6 µM
CC(=O)NCCCCCC(=O)N[C@@H](CCCNC(=N)N)C(=O)N[C@@H](Cc1c[nH]c2ccccc12)C(=O)N[C@@H](CCC(N)=O)C(=O)N[C@@H](Cc1c[nH]c2ccccc12)C(=O)N[C@@H](CCCNC(=N)N)C(=O)N[C@@H](Cc1c[nH]c2ccccc12)C(=O)N[C@@H](CCC(N)=O)C(=O)N[C@@H](Cc1c[nH]c2ccccc12)C(=O)N[C@@H](CCCNC(=N)N)C(N)=O  IC50 (HT-29; cell growth or viability, MTT): > 122 µM
N.N.[Cl][Pt][Cl]  IC50 (human iPSC-derived sensory neurons; cell viability, resazurin reduction; 48 h): 3.1 µM
O=C(Cn1cnc2ccccc2c1=O)Nc1ccc(O)cc1[N+](=O)[O-]  IC50 (HepG2.2.15; cell growth or viability, crystal violet; 48 h): > 100 µM
Nc1nc(NC2CC2)c2ncn([C@H]3C=C[C@@H](CO)C3)c2n1  IC50 (human T-lymphocyte; cell growth or viability; 72 h): > 250 µM
CC1(C)OC2=C(C(=O)c3ccccc3C2=O)C1n1cc(C[Se]c2ccccc2)nn1 (stereo not shown)  IC50 (six human cancer cell lines; MTT; 72 h, range over cell lines): 1.59 to 2.95 µM
COCc1c(-c2cc3cc(C)cc(OC)c3s2)c2c(N)ncnn2c1CN1CCNC(=O)C1  IC50 (HUVEC; cell growth, Alamar Blue; 72 h, added: FGF2 5 ng/mL): 0.0158 µM
CC(C)[C@@H]1NC(=O)[C@H](CCCCN)NC(=O)[C@@H](Cc2c[nH]c3ccccc23)NC(=O)[C@H](Cc2ccc(O)cc2)NC(=O)[C@@H](NC(=O)[C@H](N)Cc2ccc3ccccc3c2)CSSC[C@@H](C(=O)N[C@H](C(N)=O)[C@@H](C)O)NC1=O  IC50 (NCI-H720; cell proliferation, MTT; 72 h): 6.5e-06 µM
CCC[C@@H](C)[C@H](O)[C@H](C)[C@@H](O)[C@@H](C)[C@H](Cc1nc(C2=N[C@@](C)(C3=N[C@@](C)(C(=O)N[C@H]([C@@H](O)[C@@H](C)C(=O)OCC)[C@@H](C)CC)CS3)CS2)cs1)OC  IC50 (mouse neocortical neurons; spontaneous Ca2+ oscillations, inhibitor, fluo-3 calcium imaging; 12-13 DIV): inactive
C#CC[C@H](N)C(=O)NCC(=O)NCC(=O)N[C@@H](Cc1ccc(O)cc1)C(=O)N[C@@H](CC(N)=O)C(=O)N[C@@H](CC(C)C)C(=O)N[C@@H](CCCNC(=N)N)C(=O)N1CCC[C@H]1C(=O)N[C@@H](CCCNC(=N)N)C(=O)N[C@H](C(=O)N[C@@H](Cc1ccc(O)cc1)C(=O)N[C@@H](CCC(N)=O)C(=O)N1CCC[C@H]1C(=O)N[C@@H](CCC(N)=O)C(=O)N[C@@H](CCCNC(=N)N)C(=O)N[C@@H](Cc1ccc(O)cc1)C(=O)NCC(=O)NCC(N)=O)[C@@H](C)O  IC50 (A2780; cell growth or viability, MTT): > 200 µM
S=C([S][Au][PH](c1ccccc1)(c1ccccc1)c1ccccc1)n1cccn1  IC50 (PHA-P stimulated human PBMC; cell growth, MTT; 3 d): 8.55 ± 3.37 µM
COc1c(O)cc2oc3cc(O)c4c(c3c(=O)c2c1CCC(C)(C)O)OC(C)(C)CC4  IC50 (HT-29; cytotoxicity, sulforhodamine B; 72 h): > 20 µM
O=C1C2=C(OC(Cn3cc(C[Se]c4ccccc4)nn3)C2)C(=O)c2ccccc21 (stereo not shown)  IC50 (six human cancer cell lines; MTT; 72 h, range over cell lines): 0.62 to 2.42 µM
CC(C)c1ccc2c(c1)CC[C@H]1[C@](C)(CN)CCC[C@]21C  IC50 (C8161.Cl 9 melanoma; cell viability, MTS; 72 h): 4.35 ± 0.34 µM
O=c1c2ccccc2nc(S)n1Cc1cccnc1  IC50 (HepG2.2.15; cell growth or viability, crystal violet; 48 h): 46.4 µM
COc1c(O)cc2oc3cc(O)c(CC=C(C)C)c(O)c3c(=O)c2c1CC=C(C)C  IC50 (HT-29; cell growth or viability, MTT; 24 h): 26 µM
[Cl][Cd][Cl]  IC50 (Caco-2 monolayers; transepithelial resistance; 96 h, repeated dosing): 22 µM
Nc1nc2c(ncn2COCCO)c(=O)[nH]1  IC50 (CCRF-CEM; cell growth or viability): > 250 µM
lead  IC50 (U-251 overexpressing EphA2; cell viability, MTT; 48 h): 2.1 ± 1.05 µM
CC(/C=C/C(C)=C/[C@@H]1Cc2nc(cs2)CCCCC(=O)O[C@@H](C)C/C(C)=C/C=C\C(=O)O1)=C\CN(C)C  IC50 (primary CLL cells; apoptosis induction, annexin V/PI staining; 24 h, 10% autologous patient plasma): 6.88 µM
